{"data": "Assay results gathered from unrelated publications", "target": "Serine/threonine-protein kinase Chk1 (CHEK1, Homo sapiens, UniProt O14757)", "One construct used (O14757 1-476)": "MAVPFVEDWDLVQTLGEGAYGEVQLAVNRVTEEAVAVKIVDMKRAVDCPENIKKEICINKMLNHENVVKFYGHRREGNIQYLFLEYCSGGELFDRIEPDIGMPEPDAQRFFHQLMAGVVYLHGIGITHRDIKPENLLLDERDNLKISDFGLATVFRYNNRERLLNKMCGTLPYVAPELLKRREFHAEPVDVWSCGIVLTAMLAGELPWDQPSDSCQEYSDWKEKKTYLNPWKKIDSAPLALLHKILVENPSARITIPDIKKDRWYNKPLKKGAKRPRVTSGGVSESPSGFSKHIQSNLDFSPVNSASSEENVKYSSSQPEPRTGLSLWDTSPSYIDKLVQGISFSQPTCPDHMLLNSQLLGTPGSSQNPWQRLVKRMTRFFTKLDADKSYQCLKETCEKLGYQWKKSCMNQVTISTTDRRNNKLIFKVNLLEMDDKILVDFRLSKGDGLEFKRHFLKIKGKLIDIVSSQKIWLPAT", "note": "Each line is one published result; not all experiments were run side by side."}
{"SMILES": "C=CC(=O)N1CCC(C(=O)NCC(=O)N2CCN(c3nc(-c4cnc(N)nc4C(F)F)nc(N4CCOCC4)n3)CC2)CC1", "assay": "KINOMEscan", "conditions": "1 µM", "measurement": "remaining binding", "value": "88%"}
{"SMILES": "C1=C/COCc2cc(ccc2OCCN2CCCC2)Nc2nccc(n2)-c2cccc(c2)COC/1", "conditions": "concentration not given", "measurement": "percent of control", "value": "100%"}
{"SMILES": "Cc1[nH]c(/C=C2\\C(=O)Nc3ccc(F)cc32)c(C)c1C(=O)N[C@H]1CCN(C(=O)N(C)C)C1", "assay": "kinase activity, inhibitor", "conditions": "1 µM", "scale": "relative to: no-compound control", "measurement": "remaining activity", "value": "78%"}
{"SMILES": "CCN(CC)c1ccc(C2=NNC(=O)CC2C)cc1[N+](=O)[O-] (centres unmarked)", "assay": "enzyme activity, inhibitor", "conditions": "10 µM", "scale": "relative to: vehicle", "measurement": "remaining activity", "value": "104%"}
{"SMILES": "COc1cc(F)ccc1-c1ncnc(Nc2cccc(C[S@](C)(=N)=O)c2)n1", "assay": "kinase activity", "conditions": "10 µM, added: 10 µM ATP", "measurement": "remaining activity", "value": "95%"}
{"SMILES": "CCCOc1ccc(OC)c(F)c1C(=O)c1ccc(C(=O)N[C@@H]2CNC[C@H]2NC(=O)c2ccc3[nH]ncc3c2)cc1", "assay": "enzyme activity", "conditions": "10 µM", "measurement": "remaining activity", "value": "65%"}
{"SMILES": "Cc1cc(Nc2cc(N3CCN(C)CC3)nc(Sc3ccc(NC(=O)C4CC4)cc3)n2)[nH]n1", "assay": "kinase activity, KinaseProfiler", "conditions": "0.03 µM, species human", "scale": "relative to: control", "measurement": "remaining activity", "value": "88%"}
{"SMILES": "C[C@@H](c1ccc(-n2cnc3c(N)ncnc32)cc1)N1CCc2nn(C)c(Cc3ccccc3)c2C1=O", "assay": "KINOMEscan", "conditions": "0.1 µM", "scale": "relative to: DMSO control", "measurement": "remaining binding", "value": "89%"}
{"SMILES": "C=CC(=O)N1CCC(COCC(=O)N2CCN(c3nc(-c4cnc(N)nc4C(F)F)nc(N4CCOC[C@@H]4C)n3)CC2)CC1", "assay": "KINOMEscan", "conditions": "1 µM", "scale": "relative to: DMSO control", "measurement": "remaining binding", "value": "96%"}
{"SMILES": "O=C(NC1CCC1)c1ccc2nc(-c3cccc(NS(=O)(=O)NCCN4CCCCC4)c3)cn2c1", "assay": "enzyme activity", "conditions": "10 µM", "measurement": "remaining activity", "value": "100%"}
{"SMILES": "O=C1NC(=O)/C(=C/c2ccc(-c3ccc(F)cc3O)o2)S1", "assay": "enzyme activity", "conditions": "10 µM", "measurement": "remaining activity", "value": "87%"}
{"note": "Repeated from above:"}
{"SMILES": "O=C(NC1CCC1)c1ccc2nc(-c3cccc(NS(=O)(=O)NCCN4CCCCC4)c3)cn2c1", "assay": "enzyme activity", "conditions": "10 µM", "measurement": "remaining activity", "value": "100%"}
